{"data": "Experimental data gathered from unrelated publications", "note": "Numbered parts are unrelated; each lists some results of a single study.", "chain of UniProt O43283 (whole entry, looked up)": "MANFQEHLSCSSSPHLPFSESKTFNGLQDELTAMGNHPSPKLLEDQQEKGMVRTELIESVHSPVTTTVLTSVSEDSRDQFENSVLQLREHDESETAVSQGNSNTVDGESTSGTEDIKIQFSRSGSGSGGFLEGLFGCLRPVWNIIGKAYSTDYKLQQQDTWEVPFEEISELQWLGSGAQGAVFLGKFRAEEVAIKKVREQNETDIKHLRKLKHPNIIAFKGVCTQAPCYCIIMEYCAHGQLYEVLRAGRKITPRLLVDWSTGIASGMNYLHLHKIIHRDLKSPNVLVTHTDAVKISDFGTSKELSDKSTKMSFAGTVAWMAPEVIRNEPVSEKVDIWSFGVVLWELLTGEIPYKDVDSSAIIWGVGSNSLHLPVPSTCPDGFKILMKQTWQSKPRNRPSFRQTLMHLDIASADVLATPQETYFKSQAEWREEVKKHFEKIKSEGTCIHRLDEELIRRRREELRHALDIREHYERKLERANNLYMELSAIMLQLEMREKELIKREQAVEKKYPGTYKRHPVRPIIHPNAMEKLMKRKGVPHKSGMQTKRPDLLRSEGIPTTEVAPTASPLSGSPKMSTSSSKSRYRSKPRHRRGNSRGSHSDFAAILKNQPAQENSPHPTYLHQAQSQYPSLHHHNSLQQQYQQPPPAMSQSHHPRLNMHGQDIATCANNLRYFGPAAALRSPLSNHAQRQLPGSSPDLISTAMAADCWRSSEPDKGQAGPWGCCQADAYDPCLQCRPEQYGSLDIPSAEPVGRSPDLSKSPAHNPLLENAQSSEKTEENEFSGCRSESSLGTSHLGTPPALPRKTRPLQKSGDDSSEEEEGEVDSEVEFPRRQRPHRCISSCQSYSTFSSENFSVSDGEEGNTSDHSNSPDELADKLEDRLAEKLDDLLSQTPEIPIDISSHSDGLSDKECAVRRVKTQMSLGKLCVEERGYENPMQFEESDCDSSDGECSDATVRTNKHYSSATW", "chain of UniProt P23443 (whole entry, looked up)": "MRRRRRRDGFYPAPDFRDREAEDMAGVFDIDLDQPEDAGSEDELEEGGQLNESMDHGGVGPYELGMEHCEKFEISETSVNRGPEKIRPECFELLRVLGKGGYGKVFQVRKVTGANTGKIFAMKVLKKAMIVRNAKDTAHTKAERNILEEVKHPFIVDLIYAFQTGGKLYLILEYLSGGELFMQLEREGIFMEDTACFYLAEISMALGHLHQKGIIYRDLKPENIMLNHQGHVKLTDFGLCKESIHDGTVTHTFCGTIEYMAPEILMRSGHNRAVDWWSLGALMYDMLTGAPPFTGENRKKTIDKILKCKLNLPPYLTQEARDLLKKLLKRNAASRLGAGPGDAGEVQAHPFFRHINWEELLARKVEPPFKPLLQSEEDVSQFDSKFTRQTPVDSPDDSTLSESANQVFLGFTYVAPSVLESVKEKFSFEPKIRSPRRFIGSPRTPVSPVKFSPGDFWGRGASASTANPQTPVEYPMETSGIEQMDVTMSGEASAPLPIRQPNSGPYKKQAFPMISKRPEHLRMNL", "chain of UniProt Q8N4C8 (whole entry, looked up)": "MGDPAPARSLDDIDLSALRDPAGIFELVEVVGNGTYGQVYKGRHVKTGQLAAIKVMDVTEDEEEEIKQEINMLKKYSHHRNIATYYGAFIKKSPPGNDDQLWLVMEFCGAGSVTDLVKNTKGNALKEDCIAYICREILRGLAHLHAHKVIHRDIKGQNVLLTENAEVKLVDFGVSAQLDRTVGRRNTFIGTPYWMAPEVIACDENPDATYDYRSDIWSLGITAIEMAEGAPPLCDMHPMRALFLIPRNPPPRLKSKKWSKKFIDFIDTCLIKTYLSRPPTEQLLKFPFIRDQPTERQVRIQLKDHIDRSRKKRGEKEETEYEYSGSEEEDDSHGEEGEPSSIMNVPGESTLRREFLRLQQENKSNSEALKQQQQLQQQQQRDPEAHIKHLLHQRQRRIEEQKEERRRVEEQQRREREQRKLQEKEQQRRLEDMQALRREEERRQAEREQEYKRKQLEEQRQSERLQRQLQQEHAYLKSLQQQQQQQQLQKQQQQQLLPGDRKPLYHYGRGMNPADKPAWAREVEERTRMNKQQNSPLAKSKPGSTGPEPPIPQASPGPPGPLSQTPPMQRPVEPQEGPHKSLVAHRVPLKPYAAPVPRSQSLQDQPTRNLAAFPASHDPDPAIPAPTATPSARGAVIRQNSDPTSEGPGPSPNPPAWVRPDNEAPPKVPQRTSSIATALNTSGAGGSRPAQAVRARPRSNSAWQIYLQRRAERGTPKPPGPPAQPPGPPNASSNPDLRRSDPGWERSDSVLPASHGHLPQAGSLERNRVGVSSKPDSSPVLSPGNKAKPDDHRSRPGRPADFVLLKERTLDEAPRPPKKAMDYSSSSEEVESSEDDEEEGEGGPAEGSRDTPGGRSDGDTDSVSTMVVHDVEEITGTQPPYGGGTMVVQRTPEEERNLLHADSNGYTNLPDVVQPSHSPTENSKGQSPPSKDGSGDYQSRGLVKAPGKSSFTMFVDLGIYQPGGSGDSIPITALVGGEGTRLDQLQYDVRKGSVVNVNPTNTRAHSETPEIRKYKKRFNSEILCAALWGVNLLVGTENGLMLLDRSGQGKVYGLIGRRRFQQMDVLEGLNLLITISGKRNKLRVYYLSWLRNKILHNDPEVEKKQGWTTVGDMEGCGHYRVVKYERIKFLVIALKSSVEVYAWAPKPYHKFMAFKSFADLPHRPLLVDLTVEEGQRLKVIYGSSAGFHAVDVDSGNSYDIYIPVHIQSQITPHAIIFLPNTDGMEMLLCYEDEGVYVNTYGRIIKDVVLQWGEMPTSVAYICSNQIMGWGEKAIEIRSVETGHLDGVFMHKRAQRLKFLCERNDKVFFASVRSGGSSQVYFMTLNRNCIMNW", "chain of UniProt Q08881 (whole entry, looked up)": "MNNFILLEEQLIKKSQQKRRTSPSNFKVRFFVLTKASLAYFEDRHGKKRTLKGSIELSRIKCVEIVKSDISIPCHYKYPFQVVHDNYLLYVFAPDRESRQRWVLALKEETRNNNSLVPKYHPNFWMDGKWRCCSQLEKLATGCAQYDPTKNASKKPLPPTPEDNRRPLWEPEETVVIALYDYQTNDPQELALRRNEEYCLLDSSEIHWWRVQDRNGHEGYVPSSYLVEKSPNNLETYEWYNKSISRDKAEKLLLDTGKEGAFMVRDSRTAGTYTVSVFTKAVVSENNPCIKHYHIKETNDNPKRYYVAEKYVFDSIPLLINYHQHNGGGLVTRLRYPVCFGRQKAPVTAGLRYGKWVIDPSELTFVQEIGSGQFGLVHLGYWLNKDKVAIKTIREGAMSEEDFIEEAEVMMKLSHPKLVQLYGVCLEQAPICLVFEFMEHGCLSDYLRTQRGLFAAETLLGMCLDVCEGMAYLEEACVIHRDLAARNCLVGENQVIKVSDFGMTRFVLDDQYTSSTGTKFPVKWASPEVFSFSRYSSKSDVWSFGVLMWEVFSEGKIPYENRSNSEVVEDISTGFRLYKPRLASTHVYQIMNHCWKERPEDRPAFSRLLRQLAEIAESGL", "chain of UniProt O75914 (whole entry, looked up)": "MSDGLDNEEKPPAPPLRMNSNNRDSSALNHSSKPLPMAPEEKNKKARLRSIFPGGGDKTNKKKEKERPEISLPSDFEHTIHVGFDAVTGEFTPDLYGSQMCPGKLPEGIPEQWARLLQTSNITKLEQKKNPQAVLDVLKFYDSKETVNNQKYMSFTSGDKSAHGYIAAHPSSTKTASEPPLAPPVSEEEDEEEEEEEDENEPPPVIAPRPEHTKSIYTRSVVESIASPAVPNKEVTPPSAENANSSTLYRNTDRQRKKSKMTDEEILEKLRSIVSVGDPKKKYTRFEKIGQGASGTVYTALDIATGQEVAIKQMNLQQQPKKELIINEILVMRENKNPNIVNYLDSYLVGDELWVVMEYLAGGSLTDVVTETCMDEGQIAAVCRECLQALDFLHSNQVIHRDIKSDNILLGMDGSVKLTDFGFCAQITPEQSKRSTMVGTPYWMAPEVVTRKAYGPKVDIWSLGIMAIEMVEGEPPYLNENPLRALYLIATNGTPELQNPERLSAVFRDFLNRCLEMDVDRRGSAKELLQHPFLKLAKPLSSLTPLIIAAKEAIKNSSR"}
{"data": "Block 1", "Compound": "Cn1nc(C(F)(F)F)cc1-c1cnc(N2CCc3cc(S(=O)(=O)Nc4c(F)cc(Cl)cc4F)cc(N4CCCC4=O)c32)nc1", "effect on": "cell-free assay", "method": "competition with immobilised ligand", "concentration": "1 µM"}
{"target": "Microtubule-associated serine/threonine-protein kinase 1 (MAST1, Homo sapiens, UniProt Q9Y2H9)", "remaining binding [%]": 100}
{"target": "Mitogen-activated protein kinase kinase kinase 13 (MAP3K13, Homo sapiens, UniProt O43283)", "remaining binding [%]": 79}
{"target": "Tyrosine-protein kinase ABL1, non-phosphorylated (ABL1, Homo sapiens, UniProt P00519, Q252H)", "remaining binding [%]": 85}
{"target": "Mitogen-activated protein kinase 15 (MAPK15, Homo sapiens, UniProt Q8TD08)", "remaining binding [%]": 78}
{"target": "Mitogen-activated protein kinase kinase kinase kinase 4 (MAP4K4, Homo sapiens, UniProt O95819)", "remaining binding [%]": 83}
{"target": "Ribosomal protein S6 kinase beta-1 (RPS6KB1, Homo sapiens, UniProt P23443)", "remaining binding [%]": 78}
{"target": "Rhodopsin kinase GRK7 (GRK7, Homo sapiens, UniProt Q8WTQ7)", "remaining binding [%]": 85}
{"target": "Tyrosine-protein kinase ITK/TSK (ITK, Homo sapiens, UniProt Q08881)", "remaining binding [%]": 97}
{"target": "Proto-oncogene tyrosine-protein kinase receptor Ret (RET, Homo sapiens, UniProt P07949)", "remaining binding [%]": 87}
{"target": "TGF-beta receptor type-2 (TGFBR2, Homo sapiens, UniProt P37173)", "remaining binding [%]": 81}
{"target": "Serine/threonine-protein kinase PAK 3 (PAK3, Homo sapiens, UniProt O75914)", "remaining binding [%]": 77}
{"target": "Serine/threonine-protein kinase 25 (STK25, Homo sapiens, UniProt O00506)", "remaining binding [%]": 100}
{"target": "Misshapen-like kinase 1 (MINK1, Homo sapiens, UniProt Q8N4C8)", "remaining binding [%]": 99}
{"data": "Block 2", "target": "Serine/threonine-protein kinase VRK1 (VRK1, Homo sapiens, UniProt Q99986)", "effect on": "enzyme activity", "action": "inhibitor", "concentration": "0.5 µM", "reference": "control", "Construct (Q99986 1-396)": "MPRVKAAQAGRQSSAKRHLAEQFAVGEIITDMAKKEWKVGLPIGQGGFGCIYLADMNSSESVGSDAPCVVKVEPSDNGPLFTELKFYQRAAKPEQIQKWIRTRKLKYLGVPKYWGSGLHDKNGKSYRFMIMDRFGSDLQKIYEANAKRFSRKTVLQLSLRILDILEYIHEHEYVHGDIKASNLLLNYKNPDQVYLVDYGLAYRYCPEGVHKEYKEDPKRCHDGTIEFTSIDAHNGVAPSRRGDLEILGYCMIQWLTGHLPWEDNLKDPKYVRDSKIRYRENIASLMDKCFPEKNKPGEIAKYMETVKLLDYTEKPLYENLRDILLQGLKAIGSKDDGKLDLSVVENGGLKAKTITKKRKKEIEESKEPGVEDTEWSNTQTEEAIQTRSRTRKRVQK"}
{"SMILES": "Cc1cccc(-c2[nH]c(C(C)(C)C)nc2-c2ccc3c(c2)OCO3)n1", "remaining activity [%]": 97.5}
{"SMILES": "N#CC(C#N)=C(N)/C(C#N)=C/c1ccc(O)cc1", "remaining activity [%]": 103}
{"SMILES": "COc1cc2ncnc(Nc3ccc(Oc4ccccc4)cc3)c2cc1OC", "remaining activity [%]": 98.2}
{"SMILES": "CN(C)c1ccc(C=C2C(=O)Nc3ccccc32)cc1", "remaining activity [%]": 89}
{"SMILES": "Cn1sc(=O)n(Cc2ccccc2)c1=O", "remaining activity [%]": 94.2}
{"SMILES": "Oc1ccc(-c2nc(-c3ccncc3)c(-c3ccc(F)cc3)[nH]2)cc1", "remaining activity [%]": 98.7}
{"SMILES": "COc1cc2ncnc(Nc3ccc(F)c(Cl)c3)c2cc1OCCCN1CCOCC1", "remaining activity [%]": 99.3}
{"SMILES": "CC(C)[C@H](CO)Nc1nc(Nc2cc(N)cc(Cl)c2)c2ncn(C(C)C)c2n1", "remaining activity [%]": 85.8}
{"SMILES": "O=C(CCCc1ccc(-c2ccccc2F)cc1)Nc1ccc(O)cc1", "remaining activity [%]": 95.5}
{"SMILES": "O=C(Nc1cccc(Nc2cc(Nc3cccc(C(F)(F)F)c3)ncn2)c1)C1CC1", "remaining activity [%]": 94}
{"SMILES": "CNC(=O)c1cc(Oc2ccc(NC(=O)Nc3ccc(Cl)c(C(F)(F)F)c3)cc2)ccn1", "remaining activity [%]": 99.3}
{"SMILES": "Nc1ccc2ncnc(NCCc3ccc(Oc4ccccc4)cc3)c2c1", "remaining activity [%]": 99.5}
{"SMILES": "Nc1ncnc2n[nH]c(Nc3ccc(F)cc3)c12", "remaining activity [%]": 82.9}
{"SMILES": "COc1ccc(OC)c2c(=S)c3ccccc3[nH]c12", "remaining activity [%]": 100}
{"SMILES": "CCOC(=O)c1c(C)[nH]c(/C=C2\\C(=O)Nc3ccccc32)c1C", "remaining activity [%]": 104}
{"data": "Block 3", "target": "Transcriptional repressor CTCF (CTCF, Homo sapiens, UniProt P49711, residues 1-727, full length assumed)", "method": "protein-binding microarray", "molecule type": "double-stranded DNA, one strand shown", "sample": "in vitro", "concentration": "not given", "setting": "k-mer, scored over probes, only values ≥0.25", "direction": "higher = stronger binding", "chain of UniProt P49711 (whole entry, looked up)": "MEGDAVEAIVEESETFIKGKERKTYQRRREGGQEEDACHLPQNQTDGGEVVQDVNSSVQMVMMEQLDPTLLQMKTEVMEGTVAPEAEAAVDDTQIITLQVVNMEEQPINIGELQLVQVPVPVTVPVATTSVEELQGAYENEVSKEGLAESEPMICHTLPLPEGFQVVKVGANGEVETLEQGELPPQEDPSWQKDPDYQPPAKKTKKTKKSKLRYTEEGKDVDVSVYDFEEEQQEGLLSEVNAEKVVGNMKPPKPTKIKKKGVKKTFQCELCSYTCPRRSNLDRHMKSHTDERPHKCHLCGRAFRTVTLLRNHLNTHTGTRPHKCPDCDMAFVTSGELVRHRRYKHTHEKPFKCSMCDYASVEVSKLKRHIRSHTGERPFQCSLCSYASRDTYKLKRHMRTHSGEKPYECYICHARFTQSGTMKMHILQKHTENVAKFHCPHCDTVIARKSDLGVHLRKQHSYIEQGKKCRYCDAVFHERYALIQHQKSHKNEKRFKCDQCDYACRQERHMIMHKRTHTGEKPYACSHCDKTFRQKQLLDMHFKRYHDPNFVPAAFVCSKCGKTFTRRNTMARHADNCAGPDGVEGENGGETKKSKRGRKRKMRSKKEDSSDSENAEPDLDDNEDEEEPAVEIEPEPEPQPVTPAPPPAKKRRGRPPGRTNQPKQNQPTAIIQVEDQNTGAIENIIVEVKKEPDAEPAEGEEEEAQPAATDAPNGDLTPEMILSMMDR"}
{"Strand": "TCATAACA", "E-score": 0.305}
{"Strand": "TAGCGCAA", "E-score": 0.33}
{"Strand": "AAGAACAA", "E-score": 0.253}
{"Strand": "ACGAAGAA", "E-score": 0.258}
{"Strand": "AACTAATA", "E-score": 0.32}
{"Strand": "ATATCCCC", "E-score": 0.282}
{"Strand": "AATATACA", "E-score": 0.362}
{"Strand": "ATACGTTC", "E-score": 0.254}
{"data": "Block 4", "target": "PABPC1L2, full length, GST fusion (mouse, UniProt A0ABA7IW68)", "method": "RNAcompete", "molecule type": "RNA", "sample": "in vitro", "concentration": "20 nM", "setting": "7-mer, probes averaged, single round", "reference": "mean of 7-mers", "direction": "higher = stronger binding", "Target sequence (chain)": "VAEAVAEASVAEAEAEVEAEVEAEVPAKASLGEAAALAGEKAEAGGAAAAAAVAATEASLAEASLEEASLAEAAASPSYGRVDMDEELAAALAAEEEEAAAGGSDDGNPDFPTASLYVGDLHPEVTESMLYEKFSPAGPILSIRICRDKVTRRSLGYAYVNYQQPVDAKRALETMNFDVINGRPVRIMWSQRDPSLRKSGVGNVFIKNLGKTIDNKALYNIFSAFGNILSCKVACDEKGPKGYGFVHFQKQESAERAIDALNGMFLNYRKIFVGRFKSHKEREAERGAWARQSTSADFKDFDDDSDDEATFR"}
{"Strand": "UAUUAGU", "7-mer Z-score": -0.36}
{"Strand": "AUCUCCU", "7-mer Z-score": -0.327}
{"Strand": "AGGAACA", "7-mer Z-score": 0.285}
{"Strand": "CCUGAUU", "7-mer Z-score": -0.278}
{"Strand": "CCCAGAA", "7-mer Z-score": -0.012}
{"Strand": "GAACUCC", "7-mer Z-score": -0.242}
{"Strand": "CUUGAAU", "7-mer Z-score": -0.197}
{"Strand": "UCAUCUC", "7-mer Z-score": -0.287}
